Measurements of several laboratories.
Lines come from different studies, so protocols differ. Numbers after ± are the reported error.
Rhomboid protease AarA: Rhomboid protease AarA (Providencia stuartii, UniProt P46116)
UniProt P46116, sequence (whole entry, looked up): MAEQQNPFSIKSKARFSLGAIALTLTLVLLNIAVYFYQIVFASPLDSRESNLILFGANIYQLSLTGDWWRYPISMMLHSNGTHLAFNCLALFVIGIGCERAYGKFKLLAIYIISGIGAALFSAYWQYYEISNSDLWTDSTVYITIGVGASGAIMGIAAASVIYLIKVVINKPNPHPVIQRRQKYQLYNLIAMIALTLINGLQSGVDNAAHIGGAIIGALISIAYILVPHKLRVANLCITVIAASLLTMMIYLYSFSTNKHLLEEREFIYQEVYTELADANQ
PPARG ligand-binding domain: Peroxisome proliferator-activated receptor gamma, ligand-binding domain (PPARG, Homo sapiens, UniProt P37231)
UniProt P37231, sequence (whole entry, looked up): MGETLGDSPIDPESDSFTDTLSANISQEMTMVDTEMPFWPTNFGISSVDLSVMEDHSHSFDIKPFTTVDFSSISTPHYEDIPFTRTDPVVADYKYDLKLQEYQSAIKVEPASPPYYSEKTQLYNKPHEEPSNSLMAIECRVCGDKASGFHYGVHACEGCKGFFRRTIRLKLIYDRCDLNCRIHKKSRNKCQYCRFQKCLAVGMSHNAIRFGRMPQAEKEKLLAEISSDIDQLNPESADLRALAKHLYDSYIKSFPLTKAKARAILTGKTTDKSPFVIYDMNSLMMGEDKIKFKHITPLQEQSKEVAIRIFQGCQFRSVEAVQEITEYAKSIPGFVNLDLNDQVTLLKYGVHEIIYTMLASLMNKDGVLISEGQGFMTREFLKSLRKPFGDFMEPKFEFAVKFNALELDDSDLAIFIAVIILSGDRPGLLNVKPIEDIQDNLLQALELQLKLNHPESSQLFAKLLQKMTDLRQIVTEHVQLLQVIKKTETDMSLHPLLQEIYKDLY
PPARG: Peroxisome proliferator-activated receptor gamma (PPARG, Homo sapiens, UniProt P37231)
UniProt Q9HCP0, sequence (whole entry, looked up): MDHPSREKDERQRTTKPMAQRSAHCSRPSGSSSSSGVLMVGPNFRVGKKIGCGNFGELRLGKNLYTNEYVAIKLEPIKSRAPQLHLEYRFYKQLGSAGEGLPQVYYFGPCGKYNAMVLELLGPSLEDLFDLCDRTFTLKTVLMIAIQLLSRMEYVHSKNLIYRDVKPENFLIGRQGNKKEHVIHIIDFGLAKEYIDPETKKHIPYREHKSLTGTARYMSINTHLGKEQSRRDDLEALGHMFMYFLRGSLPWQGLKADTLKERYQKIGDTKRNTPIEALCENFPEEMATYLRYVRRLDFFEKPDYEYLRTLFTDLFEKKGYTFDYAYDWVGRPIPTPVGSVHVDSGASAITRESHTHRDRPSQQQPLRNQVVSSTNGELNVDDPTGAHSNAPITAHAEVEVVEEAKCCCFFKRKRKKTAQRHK
UniProt P43358, sequence (whole entry, looked up): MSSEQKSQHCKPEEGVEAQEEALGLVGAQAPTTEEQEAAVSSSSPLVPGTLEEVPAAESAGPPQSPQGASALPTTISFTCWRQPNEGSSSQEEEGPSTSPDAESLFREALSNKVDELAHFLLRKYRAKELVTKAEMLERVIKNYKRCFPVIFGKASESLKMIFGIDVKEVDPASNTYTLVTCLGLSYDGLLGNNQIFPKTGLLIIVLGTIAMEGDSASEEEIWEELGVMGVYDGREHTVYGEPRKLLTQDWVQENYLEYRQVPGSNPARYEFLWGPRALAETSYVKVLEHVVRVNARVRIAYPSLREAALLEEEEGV
UniProt P51692, sequence (whole entry, looked up): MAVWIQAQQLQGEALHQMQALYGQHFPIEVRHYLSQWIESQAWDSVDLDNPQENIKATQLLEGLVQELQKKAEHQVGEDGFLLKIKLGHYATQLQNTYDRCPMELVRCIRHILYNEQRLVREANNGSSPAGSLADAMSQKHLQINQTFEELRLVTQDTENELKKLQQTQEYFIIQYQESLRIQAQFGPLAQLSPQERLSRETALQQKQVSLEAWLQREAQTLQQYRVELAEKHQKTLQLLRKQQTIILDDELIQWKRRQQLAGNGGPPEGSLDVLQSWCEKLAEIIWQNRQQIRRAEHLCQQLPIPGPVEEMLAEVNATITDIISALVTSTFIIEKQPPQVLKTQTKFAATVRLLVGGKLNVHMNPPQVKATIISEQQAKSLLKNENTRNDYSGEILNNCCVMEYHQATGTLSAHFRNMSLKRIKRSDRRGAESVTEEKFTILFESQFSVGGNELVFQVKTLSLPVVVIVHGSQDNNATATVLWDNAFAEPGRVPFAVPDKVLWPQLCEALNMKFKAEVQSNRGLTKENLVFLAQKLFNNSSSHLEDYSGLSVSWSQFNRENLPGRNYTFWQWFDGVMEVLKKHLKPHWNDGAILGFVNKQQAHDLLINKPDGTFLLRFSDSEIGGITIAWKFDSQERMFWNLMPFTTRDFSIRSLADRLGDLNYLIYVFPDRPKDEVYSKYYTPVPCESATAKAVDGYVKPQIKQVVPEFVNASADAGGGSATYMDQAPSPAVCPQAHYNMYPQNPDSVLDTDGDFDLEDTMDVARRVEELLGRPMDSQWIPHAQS
UniProt Q9UHD2, sequence (whole entry, looked up): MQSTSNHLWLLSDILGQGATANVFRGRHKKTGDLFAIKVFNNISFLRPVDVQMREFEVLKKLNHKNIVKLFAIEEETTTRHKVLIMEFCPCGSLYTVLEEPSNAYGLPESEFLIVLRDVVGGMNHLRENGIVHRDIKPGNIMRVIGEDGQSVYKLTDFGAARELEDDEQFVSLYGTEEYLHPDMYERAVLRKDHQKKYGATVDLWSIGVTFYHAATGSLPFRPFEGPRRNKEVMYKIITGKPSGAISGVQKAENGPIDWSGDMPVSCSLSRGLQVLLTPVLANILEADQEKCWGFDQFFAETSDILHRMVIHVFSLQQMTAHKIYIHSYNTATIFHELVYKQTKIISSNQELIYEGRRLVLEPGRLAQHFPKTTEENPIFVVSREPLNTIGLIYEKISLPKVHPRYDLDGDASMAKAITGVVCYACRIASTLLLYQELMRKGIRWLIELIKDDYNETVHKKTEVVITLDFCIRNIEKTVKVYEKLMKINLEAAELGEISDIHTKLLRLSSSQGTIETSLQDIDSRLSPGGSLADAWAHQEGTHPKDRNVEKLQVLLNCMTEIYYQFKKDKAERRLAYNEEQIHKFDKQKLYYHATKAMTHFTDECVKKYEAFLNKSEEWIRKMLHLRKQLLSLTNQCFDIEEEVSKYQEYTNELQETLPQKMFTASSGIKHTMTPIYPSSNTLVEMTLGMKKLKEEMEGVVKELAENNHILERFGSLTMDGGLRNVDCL
UniProt O15297, sequence (whole entry, looked up): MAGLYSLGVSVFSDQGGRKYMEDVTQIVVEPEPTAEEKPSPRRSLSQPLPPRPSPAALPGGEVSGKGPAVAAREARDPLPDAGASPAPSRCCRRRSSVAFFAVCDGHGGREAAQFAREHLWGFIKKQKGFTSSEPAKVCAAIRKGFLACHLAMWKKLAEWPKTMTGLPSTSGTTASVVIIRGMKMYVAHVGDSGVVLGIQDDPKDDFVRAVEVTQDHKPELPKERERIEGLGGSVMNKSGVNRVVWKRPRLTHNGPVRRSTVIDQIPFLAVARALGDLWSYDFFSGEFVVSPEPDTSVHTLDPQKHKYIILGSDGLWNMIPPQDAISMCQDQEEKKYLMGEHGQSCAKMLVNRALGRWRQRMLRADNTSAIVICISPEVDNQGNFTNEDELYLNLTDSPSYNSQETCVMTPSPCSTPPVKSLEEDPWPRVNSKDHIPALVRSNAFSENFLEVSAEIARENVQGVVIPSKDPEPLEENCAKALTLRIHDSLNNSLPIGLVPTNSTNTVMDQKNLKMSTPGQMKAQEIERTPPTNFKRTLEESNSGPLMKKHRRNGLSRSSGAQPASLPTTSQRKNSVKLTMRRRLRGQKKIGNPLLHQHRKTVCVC
UniProt Q13547, sequence (whole entry, looked up): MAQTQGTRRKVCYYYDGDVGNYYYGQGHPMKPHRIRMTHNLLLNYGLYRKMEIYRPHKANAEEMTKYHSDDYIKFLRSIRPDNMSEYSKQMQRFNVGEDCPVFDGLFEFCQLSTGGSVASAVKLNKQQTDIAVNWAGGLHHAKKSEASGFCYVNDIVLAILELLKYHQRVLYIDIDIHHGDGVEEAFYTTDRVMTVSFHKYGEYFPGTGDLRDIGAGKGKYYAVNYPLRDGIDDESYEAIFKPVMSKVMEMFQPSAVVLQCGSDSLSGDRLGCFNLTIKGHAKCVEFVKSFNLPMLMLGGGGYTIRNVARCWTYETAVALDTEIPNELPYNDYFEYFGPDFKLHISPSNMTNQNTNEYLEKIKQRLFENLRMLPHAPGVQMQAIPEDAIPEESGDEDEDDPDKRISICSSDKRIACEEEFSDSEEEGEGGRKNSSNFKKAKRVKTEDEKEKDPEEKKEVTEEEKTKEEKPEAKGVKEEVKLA

Structure (SMILES) | target | test | test system | conditions | IC50 [nM]
CCCSc1nc(Sc2nccs2)c2nnn(CCO)c2n1 | KDM1A (Homo sapiens, UniProt O60341) | enzyme activity, inhibitor, fluorescence |  |  | 1030
CC(C)Oc1cccc(NC(=O)C(C(F)(F)F)C(F)(F)F)c1 | Rhomboid protease AarA | enzyme activity, inhibitor, fluorescence |  |  | 10000
CN1CCN(C(=O)c2ccc(-c3cc4nccc(-c5ccc6cnccc6c5)c4o3)cc2)CC1 | TBK1 (Homo sapiens, UniProt Q9UHD2) | enzyme activity, inhibitor |  |  | > 10000
CC(C)Cn1cc(Cc2cccc(OC(C)(C)C(=O)O)c2)c2ccc(C(=O)N[C@@H](C)c3cccc(C(C)(C)C)c3)cc21 | PPARG ligand-binding domain | reporter gene, luciferase reporter | HEK293T, Gal4-PPARγ LBD |  | 60
Cc1cccc(NC(=O)C(C(F)(F)F)C(F)(F)F)c1 | Rhomboid protease AarA | enzyme activity, inhibitor, fluorogenic peptide |  |  | 18000
Cc1c(Cc2cccc(OC(C)(C)C(=O)O)c2)c2ccc(C(=O)N[C@@H](C)c3ccc(C(C)C)cc3)cc2n1C | PPARG ligand-binding domain | reporter gene, luciferase reporter | HEK293T, Gal4-PPARγ LBD |  | 850
CC1C(=O)N(S(=O)(=O)c2ccccc2)C1c1ccccc1 (stereo not shown) | Rhomboid protease AarA | enzyme activity, inhibitor, fluorescence |  |  | 224000
NCCNC(=O)[C@H](CC1CCCCC1)NC(=O)c1ccc(CNc2ccccn2)s1 | PPM1D (Homo sapiens, UniProt O15297) | enzyme activity, inhibitor |  |  | 365
O=C(COc1ccc2ccccc2c1)NCc1ccc(OP(=O)(O)O)cc1 | Signal transducer and activator of transcription 5B, SH2 (STAT5B, Homo sapiens, UniProt P51692) | ligand displacement, FP |  |  | 102000
CCCCCC(=O)Nc1ccc(Nc2ncc(F)c(-c3cc(F)c4nc(C)n(C(C)C)c4c3)n2)cc1 | HDAC1 (Homo sapiens, UniProt Q13547) | enzyme activity, inhibitor |  |  | > 1000
Cc1c(Cc2cccc(OC(C)(C)C(=O)O)c2)c2ccc(C(=O)N[C@@H](C)c3cccc(C(C)C)c3)cc2n1C | PPARG | ligand displacement, TR-FRET |  |  | 1
Cc1nn(-c2cccc(N)c2)c(=O)c2cnc(Nc3ccc(N4CCNCC4)cc3)nc12 | CSNK1G1 (Homo sapiens, UniProt Q9HCP0) | enzyme activity, inhibitor |  |  | > 10000
Cc1c(Cc2cccc(OC(C)(C)C(=O)O)c2)c2ccc(C(=O)N[C@@H](C)c3cccc(C4CC4)c3)cc2n1C | PPARG | ligand displacement, TR-FRET |  |  | 5
CC[C@H](C)[C@@H]1NC(=O)[C@H](Cc2ccccc2)NC(=O)CCSCc2cccc(c2)CSCCNC(=O)[C@H](C)NC(=O)[C@H](Cc2ccc(O)cc2)NC(=O)[C@H](CC(=O)O)NC(=O)[C@H](Cc2ccc(F)cc2)NC(=O)[C@H](CC(C)C)NC(=O)[C@H](CCCCN)NC1=O | Melanoma-associated antigen 4, MAGE homology domain (Homo sapiens, UniProt P43358) | binding, inhibitor, TR-FRET displacement |  | added: Alexa647-MTP-1 | 851 ± 190
Cc1c(Cc2ccc(OC(C)C(=O)O)cc2)c2ccc(C(=O)N[C@@H](C)c3ccc(C(C)(C)C)cc3)cc2n1C (stereo partly shown) | PPARG | ligand displacement, TR-FRET |  |  | 401
Cc1cc(C)nc(NC(=S)N2CCN(c3ccncc3)CC2)c1 | LDHA (Homo sapiens, UniProt P00338) | enzyme activity, inhibitor |  |  | > 57000

For quick reference, copied from above:
Structure (SMILES) | target | test | test system | conditions | IC50 [nM]
NCCNC(=O)[C@H](CC1CCCCC1)NC(=O)c1ccc(CNc2ccccn2)s1 | PPM1D (Homo sapiens, UniProt O15297) | enzyme activity, inhibitor |  |  | 365
O=C(COc1ccc2ccccc2c1)NCc1ccc(OP(=O)(O)O)cc1 | Signal transducer and activator of transcription 5B, SH2 (STAT5B, Homo sapiens, UniProt P51692) | ligand displacement, FP |  |  | 102000
CCCCCC(=O)Nc1ccc(Nc2ncc(F)c(-c3cc(F)c4nc(C)n(C(C)C)c4c3)n2)cc1 | HDAC1 (Homo sapiens, UniProt Q13547) | enzyme activity, inhibitor |  |  | > 1000
